# Assay results of several laboratories.
# Lines come from different studies, so protocols differ. Several values in a cell are separate wells, animals, samples, runs or records. ± gives the spread as reported.
Compound,test,system,setting,how to read,quantity,value
O=C(O)CCCO,,male Sprague-Dawley rat,"intravenous, 600 mg/kg daily for 5 days, day 5",,respiratory frequency,no effect
COc1cccc(C2(O)CCCCC2CN(C)C)c1 (centres unmarked),joint PK model,"human, whole blood","oral, dose not given, two-compartment metabolite model",,central volume,0.429 L
O=C(O)CCC(CP(=O)(O)O)C(=O)O (centres unmarked),,"Wistar rat, male, sciatic nerve","ip, 100 mg/kg",,Tmax,15 min
C#Cc1ccc2c(c1)C(c1ccccn1)=NCc1c(-c3cnco3)ncn1-2.Cl,"thermodynamic equilibrium, UV",ethyl acetate,"24 h, 25 °C",,solubility,224 µg/mL
CCN(CC)C(=O)[C@@H]1C=C2c3cccc4[nH]cc(c34)C[C@H]2N(C)C1,measured: impaired balance,healthy volunteers,"dose not given, 0 to 12 h","relative to: placebo, direction not given",List of Complaints score,9
CN/C(=N\[N+](=O)[O-])NCc1cnc(Cl)s1,,soil,"28 days, nominal 3.3",,concentration,2.1 mg/kg dry soil
OCc1ncc2n1-c1ccc(Cl)cc1C(c1ccccc1F)=NC2,measured: 1'-hydroxymidazolam,"wild-type mice, plasma","iv, 500 mg/kg, 3 days, added: midazolam 0.3 mg/kg, phenobarbital, 10 mg/kg pregnenolone 16α-carbonitrile",,Cmax,91 ± 30 nM
CCCCCn1nc(C(=O)Nc2cccc3ccccc23)c2ccccc21,,human liver microsomes,scaled to whole liver,,scaled intrinsic clearance,469 mL/min/kg
O=C(O)c1cn(Cc2cccc(Cl)c2)c2ccccc12,,"F344 rat, male, serum","oral, 150 mg/kg/day, 2 days, group mean",,alanine aminotransferase,69 U/L
C=C(C)[C@@H]1CCC(C)=C[C@H]1c1c(O)cc(CCCCC)cc1O,,human,"750 mg, trial 17075, added: fluconazole 400 mg",,serious AEs,0%
CCCC(C(=O)c1ccc(O)c(O)c1)N1CCCC1 (centres unmarked),,"rat, plasma","subcutaneous, dose not given, after MDPV dosing, median",,conjugated fraction,88.1%
CCCCOc1nc(N)c2c(n1)N(Cc1cccc(CN3CCCC3)c1)CC(=O)N2,,human,"oral, 2 mg, grade 1",,nausea incidence,6.7%
CCCCCCC#Cc1cncc(-c2nnc(SCc3cc([N+](=O)[O-])cc([N+](=O)[O-])c3)n2C)c1,,human liver microsomes,microsomal stability,,t1/2,3.9 min
C[C@H]1CN(C(=O)CC#N)[C@]12CCN(c1ncnc3[nH]ccc13)C2,,healthy human,"oral, 6 mg single",,subjects with influenza-like illness,0%
OCc1ncc2n1-c1ccc(Cl)cc1C(c1ccccc1F)=NC2,,"healthy volunteers, plasma","dose not given, added: momelotinib multiple-dose",relative to: compound alone,Cmax decrease,14%
Cc1ncc(OC[C@@]2(c3cccc(F)c3)C[C@H]2C(=O)Nc2ccc(F)cn2)c(C)n1,population PK base model,"human, plasma",oral,,V3/F,223 L
C[C@]12CC[C@H]3[C@@H](CCC4=CC(=O)CC[C@@]43C)[C@@H]1CC[C@@H]2O,,mouse liver microsomes,,,scaled hepatic intrinsic clearance,1260 mL/min/kg and 838 mL/min/kg
O=C1c2c(O)c(=O)ccn2N([C@@H]2c3ccccc3SCc3c2ccc(F)c3F)[C@@H]2COCCN12,,"BALB/c mice, plasma","oral, 0.5 mg/kg baloxavir marboxil, 6 h",,plasma concentration,1.6 ng/mL
COc1ccc2c(c1)[C@]13CCCC[C@@H]1[C@H](C2)N(C)CC3,,"Sprague-Dawley rat, male",,,unbound intrinsic clearance,1410 mL/min/kg
CCCCCCCCCCC(=O)O[C@H]1CC[C@H]2[C@@H]3CCC4=CC(=O)CC[C@]4(C)[C@H]3CC[C@]12C,,human male serum,"500 ng/mL, NaF 0.00 mg/mL, baseline testosterone 544 ng/dL",,testosterone level,523 ng/dL
COc1cc(C[C@@H](C)N)c(OC)cc1I.Cl,,1-octanol/phosphate buffer,pH 7.4,,distribution coefficient,3.03
CCCCCCCCCCC(=O)O[C@H]1CC[C@H]2[C@H]3[C@H]([C@@H](C)C[C@]12C)[C@H]1CCC(=O)C=C1C[C@H]3C,,human serum,"300 ng/mL, NaF 200 mg/mL",,DMA level,not detected
CC(C)C[C@@H]1NC(=O)[C@H](C)N(C)C(=O)[C@H](Cc2ccccc2)NCc2cc(cn2C)CNC1=O,PAMPA,lecithin in dodecane,"100 µM, 17 h, pH 6.4, 37 °C",,-log Pe,6.61
CCCCCCC#Cc1cncc(-c2nnc(SCc3ccc([N+](=O)[O-])o3)n2C2CC2)c1,,mouse liver microsomes,microsomal stability,,t1/2,2.5 min
Cc1ncc2n1-c1ccc(Cl)cc1C(c1ccccc1F)=NC2,,"wild-type mice, plasma","intravenous, 0.3 mg/kg, added: 3-day PCN 10 mg/kg",,AUC(0-inf),0.042 ± 0.00322 µM·h
C=C1C[C@H]2[C@@H]3CC[C@H](O)[C@@]3(C)CC[C@@H]2[C@@]2(C)C=CC(=O)C=C12,,"postmenopausal women, serum","dose not given, UGT2B17 and GSTA1 genotypes",,serum concentration,1.9 nM
COc1cc2c(Oc3ccc4[nH]c(C)cc4c3F)ccnc2cc1OCC1(N)CC1,measured: grade 1 or 2 influenza-like symptoms,paediatric high-risk refractory sarcoma,8 mg,,incidence of adverse event,6.7%
C[C@]12CC[C@H]3[C@@H](CCC4=CC(=O)CC[C@@]43C)[C@@H]1CC[C@@H]2O,,cryopreserved SD rat hepatocytes,1 µM,,scaled intrinsic clearance,1110 mL/min/kg
C=C1C[C@H]2[C@@H]3CC[C@H](O[C@@H]4O[C@H](C(=O)O)[C@@H](O)[C@H](O)[C@H]4O)[C@@]3(C)CC[C@@H]2[C@@]2(C)C=CC(=O)C=C12,,"postmenopausal women, serum","dose not given, UGT2B17 and GSTA1 genotypes",,serum concentration,59 nM

# Repeated from above:
Compound,test,system,setting,how to read,quantity,value
CCCCCCC#Cc1cncc(-c2nnc(SCc3cc([N+](=O)[O-])cc([N+](=O)[O-])c3)n2C)c1,,human liver microsomes,microsomal stability,,t1/2,3.9 min
CCCCOc1nc(N)c2c(n1)N(Cc1cccc(CN3CCCC3)c1)CC(=O)N2,,human,"oral, 2 mg, grade 1",,nausea incidence,6.7%
